Experimental data pooled from the literature.
Compare with care: the assays were run in different laboratories. Several values in a cell are separate wells, animals, samples, runs or records. Numbers after ± are the reported error.
Chain of UniProt P41143 (whole entry, looked up): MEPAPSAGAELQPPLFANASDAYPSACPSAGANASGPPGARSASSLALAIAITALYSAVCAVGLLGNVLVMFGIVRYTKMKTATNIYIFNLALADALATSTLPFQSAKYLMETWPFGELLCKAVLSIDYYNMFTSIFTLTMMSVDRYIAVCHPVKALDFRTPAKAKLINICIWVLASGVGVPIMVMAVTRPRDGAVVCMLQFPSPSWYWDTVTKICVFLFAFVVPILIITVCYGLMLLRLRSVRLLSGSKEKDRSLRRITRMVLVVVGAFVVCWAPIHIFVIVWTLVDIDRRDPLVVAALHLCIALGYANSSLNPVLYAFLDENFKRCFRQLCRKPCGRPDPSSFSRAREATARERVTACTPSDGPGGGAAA

Compound | tested on | assay | test system | setting | measurement | value
Cc1oc2nc1C(=O)N[C@](C)(C(=O)NCCc1ccccc1)c1nc(c(C)o1)C(=O)N[C@](C)(C(=O)NCCc1ccccc1)c1nc(c(C)o1)C(=O)N[C@]2(C)C(=O)NCCc1ccccc1 | SARS-CoV-2 | viral adsorption | Vero E6, NRC-03-nhCoV | 10 µM | inhibition | 9%
CCOC(=O)c1c(CSc2ccccc2)n(C)c2cc(-c3cccnc3)c(O)c(CN3CCN(CCOCCO)CC3)c12 | SARS-CoV-2 |  | Vero C1008, MEX-BC2/2020 | 7.5 µM, 96 h | inhibition | 23%
Cc1ccc(N2CC(N3CCC(C)(O)CC3)C2)cc1C(=O)NC1(c2ccc3c4c(cccc24)CC3)CC1 | SARS-CoV-2 | viral replication | Vero C1008, Omicron BA.5 | 0.005716 µM | inhibition | 0%
CC[C@H](C)[C@H](NC(=O)[C@H](CCCN)NC(=O)[C@H](CC(=O)O)NC(=O)[C@H](CC(C)C)NC(=O)C(C)(CC(C)C)NC(=O)[C@@H](NC(=O)[C@H](CO)NC(=O)[C@H](Cc1ccc(O)cc1)NC(=O)[C@H](CC(=O)O)NC(=O)[C@H](CO)NC(=O)[C@@H](NC(=O)[C@H](Cc1ccccc1)NC(=O)[C@@H](NC(=O)CNC(=O)[C@H](CCC(=O)O)NC(=O)C(C)(C)NC(=O)[C@@H](N)Cc1ccc(O)cc1)[C@@H](C)O)[C@@H](C)CC)[C@@H](C)CC)C(=O)N[C@@H](Cc1c[nH]cn1)C(=O)N[C@@H](CCC(N)=O)C(=O)NC(C)(C)C(=O)N[C@@H](CC(=O)O)C(=O)N[C@@H](Cc1ccccc1)C(=O)N[C@H](C(=O)N[C@@H](CCC(=O)O)C(=O)N[C@@H](Cc1ccc(O)cc1)C(=O)N[C@@H](CCCCNC(=O)COCCOCCNC(=O)COCCOCCNC(=O)CC[C@H](NC(=O)CCCCCCCCCCCCCCCCCCC(=O)O)C(=O)O)C(=O)N[C@@H](CC(C)C)C(=O)N[C@@H](CCC(=O)O)C(=O)NCC(=O)NCC(=O)N1CCC[C@H]1C(=O)N[C@@H](CO)C(=O)N[C@@H](CO)C(=O)NCC(=O)N[C@@H](C)C(=O)N1CCC[C@H]1C(=O)N1CCC[C@H]1C(=O)N1CCC[C@H]1C(=O)N[C@@H](CO)C(N)=O)C(C)C (stereo partly drawn) |  |  | human, type 2 diabetes | subcutaneous, 25 mg single dose, geometric mean | CL/F | 0.347 mL/min
C[C@@H]1O[C@@H](n2c3ccccc3c3c4c(c5c6ccccc6[nH]c5c32)CNC4=O)C[C@@H](N)[C@H]1O | SARS-CoV-2 | viral replication | mNeonGreen reporter | 50 µM | inhibition | 93%
CCOC(=O)c1c(CS(=O)(=O)c2ccc(Cl)cc2)n(C)c2cc(Br)c(O)c(CN(C)C)c12 | SARS-CoV-2 |  | Vero C1008, MEX-BC2/2020 | 7.5 µM, 96 h | inhibition | 11.7%
CC[C@H](C)C(=O)N1CCC(NC(=O)Nc2ccc(OC(F)(F)F)c(F)c2)CC1 |  |  | healthy volunteers | oral, 8 mg single dose | subjects with COVID-19 TEAE | 0%
Cc1oc2nc1C(=O)N[C@](C)(C(=O)OC(C)C)c1nc(c(C)o1)C(=O)N[C@](C)(C(=O)OC(C)C)c1nc(c(C)o1)C(=O)N[C@]2(C)C(=O)OC(C)C | SARS-CoV-2 | viral adsorption | Vero E6, NRC-03-nhCoV | 5 µM | inhibition | 0%
CC(C)CC(C(=O)N1CC2(CC1C#N)C(=O)Nc1ccccc12)N(C)C(=O)c1cc2c(F)cc(F)c(F)c2[nH]1 (stereo not drawn) | SARS-CoV-2 | viral replication | Vero E6 | 0.0002 µM | inhibition | 0% and 5.33% and 1.5% and 3.22%
CC(C)(C)NC(=O)[C@@H](c1cccnc1)N(C(=O)c1ccco1)c1ccc(C(C)(C)C)cc1 | SARS-CoV-2 | viral replication | Vero | 10 µM | inhibition | 45.8%
Cc1oc2nc1C(=O)N[C@](C)(C(=O)O)c1nc(c(C)o1)C(=O)N[C@](C)(C(=O)O)c1nc(c(C)o1)C(=O)N[C@]2(C)C(=O)O | SARS-CoV-2 | viral replication | Vero E6, NRC-03-nhCoV | 5 µM | inhibition | 30%
CC(C)C[C@H](NC(=O)[C@H](CO[C@@H]1O[C@H](CO)[C@@H](O[C@@H]2O[C@H](CO)[C@H](O)[C@H](O)[C@H]2O)[C@H](O)[C@H]1O)NC(=O)[C@H](CCCCN)NC(=O)[C@H](CC(C)C)NC(=O)C(C)(C)NC(=O)[C@H](CCCCN)NC(=O)[C@H](CCC(=O)O)NC(=O)C(C)(C)NC(=O)[C@H](CC(C)C)NC(=O)[C@H](CC(N)=O)NC(=O)[C@@H]1CCCN1C(=O)[C@H](CC(C)C)NC(=O)[C@H](Cc1ccccc1)NC(=O)CNC(=O)[C@H](NC(=O)[C@@H](N)Cc1ccc(O)cc1)[C@H](C)O)C(N)=O | OPRD1 (Homo sapiens, UniProt P41143) | ligand displacement, radioligand |  | pH 7.5, cell membranes | Ki | 0.035 µM
Cc1ccc(N2CCN(C)CC2)cc1C(=O)NC1(c2ccc3c4c(cccc24)CC3)CC1 | SARS-CoV-2 | viral replication | Vero C1008, Omicron BA.5 | 12.5 µM | inhibition | 100%
CCCCCCCCCCCCCCCC(=O)N[C@@H](CCC(=O)NCCOCCOCCC(=O)NCCOCCOCCC(=O)NCCCC[C@H](NC(=O)[C@H](CC(=O)O)NC(=O)[C@H](CC(C)C)NC(=O)[C@H](Cc1ccc(O)cc1)NC(=O)[C@H](CCCCN)NC(=O)[C@H](CO)NC(=O)[C@H](Cc1ccc(O)cc1)NC(=O)[C@H](CC(=O)O)NC(=O)[C@H](CO)NC(=O)[C@@H](NC(=O)[C@H](Cc1ccccc1)NC(=O)[C@@H](NC(=O)CNC(=O)[C@H](CCC(N)=O)NC(=O)[C@@H](CO)NC(=O)[C@@H](N)Cc1c[nH]cn1)[C@@H](C)O)[C@@H](C)O)C(=O)N[C@@H](CCCNC(=N)N)C(=O)N[C@@H](CCCNC(=N)N)C(=O)N[C@@H](C)C(=O)N[C@@H](CCC(N)=O)C(=O)N[C@@H](CC(=O)O)C(=O)N[C@@H](Cc1ccccc1)C(=O)N[C@H](C(=O)N[C@@H](CCC(N)=O)C(=O)N[C@@H](Cc1c[nH]c2ccccc12)C(=O)N[C@@H](CC(C)C)C(=O)N[C@@H](CC(C)C)C(=O)N[C@@H](CC(N)=O)C(=O)N[C@H](C(=O)NCC(=O)NCC(=O)N1CCC[C@H]1C(=O)N[C@@H](CO)C(=O)N[C@@H](CO)C(=O)NCC(=O)N[C@@H](C)C(=O)N1CCC[C@H]1C(=O)N1CCC[C@H]1C(=O)N1CCC[C@H]1C(=O)N[C@@H](CO)C(N)=O)[C@@H](C)O)C(C)C)C(=O)O |  |  | male Sprague-Dawley rats | subcutaneous, 20 µg/kg once daily, 14 days | serum cholesterol | 1.25 ± 0.21 mmol/L
Cc1ccc(N2CC3CC(C2)N3)cc1C(=O)NC1(c2ccc3c4c(cccc24)C(=O)N3C)CC1 | SARS-CoV-2 | viral replication | Vero C1008, Omicron BA.5 | 0.05144 µM | inhibition | 0%
CC[C@H](C)[C@@H]([C@@H](CC(=O)N1CCC[C@H]1[C@H](OC)[C@@H](C)C(=O)N[C@H](C)[C@@H](O)c1ccccc1)OC)N(C)C(=O)[C@@H](NC(=O)[C@H](C(C)C)N(C)C(=O)OCc1ccc(NC(=O)[C@H](CCCNC(N)=O)NC(=O)[C@@H](NC(=O)CCCC(=O)NCCC(=O)N(C)CC(=O)N(C)CC(=O)N(C)CC(=O)N(C)CC(=O)N(C)CC(=O)N(C)CC(=O)N(C)CC(=O)N(C)CC(=O)N(C)CC(=O)N(C)CC(=O)N[C@H]2CSCCC(=O)N3CN4CN(C3)C(=O)CCSC[C@H](NC(=O)[C@@H](CC(=O)O)NC(=O)[C@H](Cc3cccc5ccccc35)NC(=O)[C@@H]3CCCN3C2=O)C(=O)N[C@@H](CCSC)C(=O)N[C@@H](CCCCNC(=N)N)C(=O)N[C@@H](CC(=O)O)C(=O)N[C@@H](Cc2c[nH]c3ccccc23)C(=O)N[C@@H](CO)C(=O)N[C@@H]([C@@H](C)O)C(=O)N2CCC[C@H]2C(=O)N2C[C@H](O)C[C@H]2C(=O)N[C@@H](Cc2c[nH]c3ccccc23)C(=O)N[C@H](C(N)=O)CSCCC4=O)C(C)C)cc1)C(C)C |  | plasma protein binding | mouse plasma | 2 µM, 2.5 h, pH 7.4 | fu | 0.118
Cc1ccc(N2CC3CC(C2)N3C)cc1C(=O)NC1(c2ccc3c4c(cccc24)C(=O)N3C)CC1 | SARS-CoV-2 | viral replication | Vero C1008, Omicron BA.5 | 0.1543 µM, 72 h | inhibition | 5%
CCCCCCCCCCCCCCCC(=O)N[C@@H](CCC(=O)NCCCC[C@H](NC(=O)[C@H](CC(=O)O)NC(=O)[C@H](CO)NC(=O)[C@@H](NC(=O)[C@H](Cc1ccccc1)NC(=O)[C@@H](NC(=O)CNC(=O)[C@H](CCC(N)=O)NC(=O)[C@H](C)NC(=O)[C@@H](Cc1ccc(O)cc1)NC(C)=O)[C@@H](C)O)[C@@H](C)O)C(=O)N[C@@H](CO)C(=O)N[C@@H](CCCCN)C(=O)N[C@@H](Cc1ccc(O)cc1)C(=O)N[C@@H](CC(C)C)C(=O)N[C@@H](CC(=O)O)C(=O)N[C@@H](CCC(=O)O)C(=O)N[C@@H](CCCNC(=N)N)C(=O)N[C@@H](C)C(=O)N[C@@H](C)C(=O)N[C@@H](CCC(N)=O)C(=O)N[C@@H](CC(=O)O)C(=O)N[C@@H](Cc1ccccc1)C(=O)N[C@H](C(=O)N[C@@H](CCC(N)=O)C(=O)N[C@@H](Cc1c[nH]c2ccccc12)C(=O)N[C@@H](CC(C)C)C(=O)N[C@@H](CC(C)C)C(=O)N[C@@H](CCC(=O)O)C(=O)NCC(=O)NCC(=O)N1CCC[C@H]1C(=O)N[C@@H](CO)C(=O)N[C@@H](CO)C(=O)NCC(=O)N[C@@H](C)C(=O)N1CCC[C@H]1C(=O)N1CCC[C@H]1C(=O)N1CCC[C@H]1C(=O)N[C@@H](CO)C(N)=O)C(C)C)C(=O)O |  |  | male Wistar rat, plasma | subcutaneous, 0.02 mg/kg | AUC(0-inf) | 0.235 µg·h/mL

Excerpt of the above:
Compound | tested on | assay | test system | setting | measurement | value
CC[C@H](C)[C@@H]([C@@H](CC(=O)N1CCC[C@H]1[C@H](OC)[C@@H](C)C(=O)N[C@H](C)[C@@H](O)c1ccccc1)OC)N(C)C(=O)[C@@H](NC(=O)[C@H](C(C)C)N(C)C(=O)OCc1ccc(NC(=O)[C@H](CCCNC(N)=O)NC(=O)[C@@H](NC(=O)CCCC(=O)NCCC(=O)N(C)CC(=O)N(C)CC(=O)N(C)CC(=O)N(C)CC(=O)N(C)CC(=O)N(C)CC(=O)N(C)CC(=O)N(C)CC(=O)N(C)CC(=O)N(C)CC(=O)N[C@H]2CSCCC(=O)N3CN4CN(C3)C(=O)CCSC[C@H](NC(=O)[C@@H](CC(=O)O)NC(=O)[C@H](Cc3cccc5ccccc35)NC(=O)[C@@H]3CCCN3C2=O)C(=O)N[C@@H](CCSC)C(=O)N[C@@H](CCCCNC(=N)N)C(=O)N[C@@H](CC(=O)O)C(=O)N[C@@H](Cc2c[nH]c3ccccc23)C(=O)N[C@@H](CO)C(=O)N[C@@H]([C@@H](C)O)C(=O)N2CCC[C@H]2C(=O)N2C[C@H](O)C[C@H]2C(=O)N[C@@H](Cc2c[nH]c3ccccc23)C(=O)N[C@H](C(N)=O)CSCCC4=O)C(C)C)cc1)C(C)C |  | plasma protein binding | mouse plasma | 2 µM, 2.5 h, pH 7.4 | fu | 0.118
